{"data": "Results gathered from unrelated publications", "organism": "Trypanosoma brucei", "note": "Compare with care: the assays were run in different laboratories."}
{"Compound": "CCCOC(=O)/C=C/c1ccc(O)c(O)c1", "assay": "parasite growth", "system": "RHODESIENSE STIB900", "setting": "70 h, trypomastigote", "endpoint": "IC50", "value": "790 nM"}
{"Compound": "O=C(Nc1ccc2c(c1)CN(c1ccc(Cl)c(Cl)c1)C2=O)N1CCN(c2ccccc2)CC1", "assay": "parasite growth, resazurin", "system": "RHODESIENSE", "endpoint": "IC50", "value": "2100 nM"}
{"Compound": "COc1cc(O)c(-c2cc(-c3c(C)cc(O)c4c(OC)ccc(-c5c(O)cc(OC)c6c5C[C@@H](C)N(C)[C@@H]6C)c34)c(O)c3c(OC)cc(C)cc23)c2c1[C@@H](C)N(C)[C@H](C)C2", "assay": "parasite growth", "system": "RHODESIENSE STIB900", "setting": "trypomastigote", "endpoint": "IC50", "value": "476 nM"}
{"Compound": "O=C(Nc1ccc2c(c1)CN(c1ccc(Br)cc1)C2=O)N1CCN(c2ccc(F)cc2)CC1", "assay": "parasite growth, resazurin", "system": "RHODESIENSE", "endpoint": "IC50", "value": "50 nM"}
{"Compound": "Cc1nc(C(=O)N2CCC[C@H]2C(=O)N[C@@H](CCC(=O)O)C(=O)N[C@@H](CC(C)C)C(=O)NC(C)(C)C(=O)N[C@@H](CC(C)C)C(=O)N[C@@H](CC(C)C)C(=O)NC(C)(C)C(=O)NC(C)(C)C(=O)NCCC(=O)NC2(CN(C)C)CCC2)co1", "assay": "parasite growth, resazurin", "setting": "72 h", "endpoint": "IC50", "value": "> 1000 nM"}
{"Compound": "Cc1ccc(N2Cc3cc(NC(=O)N4CCN(c5ccc(F)cc5)CC4)ccc3C2=O)cc1", "assay": "parasite growth, resazurin", "system": "RHODESIENSE", "endpoint": "IC50", "value": "100 nM"}
{"Compound": "CC(=O)OC[C@H]1O[C@@H]([Se][Se][C@@H]2O[C@H](COC(C)=O)[C@@H](OC(C)=O)[C@H](OC(C)=O)[C@H]2OC(C)=O)[C@H](OC(C)=O)[C@@H](OC(C)=O)[C@@H]1OC(C)=O", "assay": "parasite growth, flow cytometry", "setting": "5 µM, 24 h", "endpoint": "inhibition", "value": "97%"}
{"Compound": "CCNc1nc(N)c(C(=O)c2ccc(Cl)s2)s1", "assay": "cell proliferation, resazurin", "system": "bloodstream form", "setting": "73 h", "endpoint": "EC50", "value": "2000 nM"}
{"Compound": "CC(=O)N[C@@H]1[C@@H](OC(C)=O)[C@H](OC(C)=O)[C@@H](COC(C)=O)O[C@H]1[Se][Se][C@@H]1O[C@H](COC(C)=O)[C@@H](OC(C)=O)[C@H](OC(C)=O)[C@H]1NC(C)=O", "assay": "parasite growth, flow cytometry", "setting": "5 µM, 24 h", "endpoint": "inhibition", "value": "37 to 97%"}
{"Compound": "COc1cc(O)c(-c2ccc(OC)c3c(O)cc(C)c(-c4cc(-c5c(O)cc(OC)c6c5C[C@@H](C)N[C@@H]6C)c5cc(C)cc(OC)c5c4O)c23)c2c1[C@@H](C)N(C)[C@H](C)C2", "assay": "parasite growth", "system": "RHODESIENSE STIB900", "setting": "trypomastigote", "endpoint": "IC50", "value": "211 nM"}
{"Compound": "CC(=O)NCCCOc1cc(F)c(-c2c(Cl)nc3ncnn3c2N[C@@H](C)C(F)(F)F)c(F)c1", "assay": "parasite growth, SYBR Green", "setting": "72 h", "endpoint": "EC50", "value": "138 nM"}
{"Compound": "CCCCOC(=O)/C=C/c1ccc(O)c(O)c1", "assay": "parasite growth", "system": "RHODESIENSE STIB900", "setting": "70 h, trypomastigote", "endpoint": "IC50", "value": "350 nM"}
{"Compound": "CC(C)[C@@H](C)Nc1c(-c2c(F)cc(OCCCN(C)C)cc2F)c(Cl)nc2ncnn12", "assay": "parasite growth, SYBR Green", "setting": "72 h", "endpoint": "EC50", "value": "72.3 nM"}
{"Compound": "O=C(Nc1cc2nc(-c3ccc(F)c(F)c3)cn2cn1)N1CC[C@H](F)C1", "assay": "parasite growth", "system": "Squib 427 suramin-sensitive", "setting": "3 days", "endpoint": "IC50", "value": "210 nM"}
{"Compound": "COC(=O)c1[nH]c(C(=O)OC)c2c1-c1c[nH]c3ccc(Cl)c(c13)[C@@]21C=Nc2ccc(Cl)cc21", "assay": "parasite growth, ATP luminescence", "setting": "48 h", "endpoint": "EC50", "value": "11000 nM"}
{"Compound": "Cc1ccc(N2Cc3cc(NC(=O)N4CCN(c5cccc(C(F)(F)F)c5)CC4)ccc3C2=O)cc1", "assay": "parasite growth, resazurin", "system": "RHODESIENSE", "endpoint": "IC50", "value": "40 nM"}
{"Compound": "COc1ccc(CONC(=O)C2OC(C)(C)OC2COP(=O)(OCOC(=O)C(C)(C)C)OCOC(=O)C(C)(C)C)c(OC)c1 (centres unmarked)", "assay": "parasite growth, resazurin", "endpoint": "IC50", "value": "39100 nM"}
{"note": "A few entries again:"}
{"Compound": "CC(=O)OC[C@H]1O[C@@H]([Se][Se][C@@H]2O[C@H](COC(C)=O)[C@@H](OC(C)=O)[C@H](OC(C)=O)[C@H]2OC(C)=O)[C@H](OC(C)=O)[C@@H](OC(C)=O)[C@@H]1OC(C)=O", "assay": "parasite growth, flow cytometry", "setting": "5 µM, 24 h", "endpoint": "inhibition", "value": "97%"}
{"Compound": "CCNc1nc(N)c(C(=O)c2ccc(Cl)s2)s1", "assay": "cell proliferation, resazurin", "system": "bloodstream form", "setting": "73 h", "endpoint": "EC50", "value": "2000 nM"}
